# Results of several laboratories.
# A part holds a random share of what one study measured. Several values in a cell are separate wells, animals, samples, runs or records.

# Set 1 — cell line: mouse MPNST tumor cells; method: high-content immunofluorescence imaging; refers to: nuclear SOX9; tested at: 10 µM; time: 12 h; notes: mean of 2 replicates; baseline: DMSO control; reading: higher = more nuclear SOX9
Compound,nuclear SOX9 intensity
Cc1cccc(C)c1NC1=NCCCS1,114 % of DMSO
O=C1CN=C(c2ccc[nH]2)c2cc(Cl)ccc2N1,113 % of DMSO
C1CCc2nnnn2CC1,99.2 % of DMSO
C[C@@H]1CN(Cc2ccc(F)cc2)CCN1C(=O)COc1ccc(Cl)cc1NC(N)=O,84.5 % of DMSO
Clc1cccc(SC2CCNCC2)n1,98.3 % of DMSO
NCCc1c[nH]c2ccc(O)cc12,105 % of DMSO
O=C(Oc1ccc(Br)cc1)N1CCN2CCC1CC2,94.5 % of DMSO
O=C1NC(=O)c2c1c1c3ccccc3[nH]c1c1[nH]c3ccccc3c21,103 % of DMSO
CC(=O)N(C)c1cccc(-c2ccnc3c(C(=O)c4cccs4)cnn23)c1,109 % of DMSO
CCC(COC(=O)c1cc(OC)c(OC)c(OC)c1)(c1ccccc1)N(C)C (centres unmarked),98 % of DMSO
COc1ccc(CN2CCNCC2)c(OC)c1OC,150 % of DMSO
c1ccc2c(c1)OCC(C1=NCCN1)O2 (centres unmarked),103 % of DMSO
C[C@]12CCC(=O)C(O)=C1CC[C@@H]1[C@@H]2CC[C@]2(C)C(=O)CC[C@@H]12,99.2 % of DMSO
FC(F)(F)c1cccc(C2=CCN(CCc3ccc4ccccc4c3)CC2)c1,91.2 % of DMSO

# Set 2 — cell line: Huh-7; tested at: 10 µM; time: 24 h
Structure (SMILES),viability [%]
COC(=O)C1=CCCN(C)C1,102
NC(=O)CN1CCCC1=O,101
C[C@@H](CO)NC(=O)[C@@H]1C=C2c3cccc4[nH]cc(c34)C[C@H]2N(C)C1,97.6

# Set 3 — effect on: RNA clamping; method: fluorescence polarization; tested at: concentration not given; added: FAM-labelled poly r(AG)8 RNA; reading: higher = more clamping
# Target: Eukaryotic initiation factor 4A-I (EIF4A1, Homo sapiens, UniProt P60842)
# Sequence of UniProt P60842 (whole entry, looked up): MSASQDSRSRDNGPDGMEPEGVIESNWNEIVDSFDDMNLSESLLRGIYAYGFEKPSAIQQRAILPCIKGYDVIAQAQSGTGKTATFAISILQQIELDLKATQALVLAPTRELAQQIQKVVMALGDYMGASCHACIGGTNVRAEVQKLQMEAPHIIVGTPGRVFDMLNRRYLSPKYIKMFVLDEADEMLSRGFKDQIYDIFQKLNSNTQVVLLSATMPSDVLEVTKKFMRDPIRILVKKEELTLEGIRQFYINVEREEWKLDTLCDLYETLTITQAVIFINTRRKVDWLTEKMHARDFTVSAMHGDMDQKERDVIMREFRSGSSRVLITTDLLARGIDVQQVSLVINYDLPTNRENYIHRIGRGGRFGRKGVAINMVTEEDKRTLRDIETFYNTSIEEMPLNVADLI
Compound,fluorescence polarization change
C#CCOc1nc(-c2ccccc2)nc2c1[C@@H](c1ccccc1)[C@]1(c3ccc(OC)cc3)Oc3cc(OC)cc(OC)c3[C@]21OCC#C,17.5 mP
CCOc1ccccc1-c1nc2c(c(=O)[nH]1)[C@@H](c1ccccc1)[C@]1(c3ccc(OC)cc3)Oc3cc(OC)cc(OC)c3[C@]21O,57.2 mP
COCCN[C@]12c3c(OC)cc(OC)cc3O[C@@]1(c1ccc(OC)cc1)[C@H](c1ccccc1)[C@@H](C(=O)N(C)C)[C@H]2O,10 mP
COc1ccc([C@@]23Oc4cc(OC)cc(OC)c4[C@@]24NC(C2CC2)=N[C@@]4(O)[C@H](C(=O)N(C)OC)[C@H]3c2ccccc2)cc1,80.3 mP
COC(=O)[C@@H]1[C@@H](c2ccccc2)[C@]2(c3ccc(OC)cc3)Oc3cc(OC)cc(OC)c3[C@@]23N=C(C2CC2)N[C@@]13O,86.1 mP and 62.7 mP
COC(=O)[C@@H]1[C@@H](c2ccccc2)[C@]2(c3ccc(OC)cc3)Oc3cc(OC)cc(OC)c3[C@@]1(O)[C@H]2O,10.2 mP
COC(=O)[C@@H]1[C@@H](c2ccccc2)C2(c3ccc(OC)cc3)C(=O)C1(O)c1ccccc1N2C (some centres unmarked),-0.3 mP
COC(=O)[C@@H]1[C@@H](c2ccccc2)[C@]2(c3ccc(Br)cc3)Oc3cc(OC)cc(OC)c3[C@@]1(O)C2(O)O,8.2 mP
COc1ccc([C@@]23Oc4cc(OC)cc(OC)c4[C@]2(O)C(=O)C[C@H]3c2ccccc2)cc1,50.2 mP
COc1ccc([C@@]23Oc4cc(OC)cc(OC)c4[C@]2(O)c2nc(-c4ccc(OCc5ccccc5)cc4)[nH]c(=O)c2[C@H]3c2ccccc2)cc1,1.9 mP
CONC(=O)[C@H]1[C@@H](O)[C@@]2(O)c3c(OC)cc(OC)cc3O[C@@]2(c2ccc(OC)cc2)[C@@H]1c1ccccc1,63.9 mP and 22.2 mP and 74.6 mP

# Set 4 — organism: Staphylococcus aureus; strain: USA300; tested at: 2 x MIC
# Structure (SMILES): CCCCC[C@@H](O)CC(=O)N[C@@H]1C(=O)N[C@H](CCCNC(=N)N)C(=O)N[C@@H](CO)C(=O)NCC(=O)N(C)[C@H](Cc2ccccc2)C(=O)N[C@@H](CC(C)C)C(=O)N[C@H](CCCNC(=N)N)C(=O)N[C@@H](CO)C(=O)N[C@H]([C@H](C)O)C(=O)N[C@H](Cc2c[nH]c3ccccc23)C(=O)N[C@@H]([C@@H](C)CC)C(=O)NCC(=O)O[C@@H]1C
setting,viable cells
120 min,1500 CFU/mL and 1000 CFU/mL and 800 CFU/mL
30 min,2000 CFU/mL and 1700 CFU/mL and 1500 CFU/mL
300 min,600 CFU/mL and 800 CFU/mL and 400 CFU/mL
180 min,1000 CFU/mL and 500 CFU/mL and 800 CFU/mL

# For quick reference, copied from above (set 3):
Compound,fluorescence polarization change
COCCN[C@]12c3c(OC)cc(OC)cc3O[C@@]1(c1ccc(OC)cc1)[C@H](c1ccccc1)[C@@H](C(=O)N(C)C)[C@H]2O,10 mP
CONC(=O)[C@H]1[C@@H](O)[C@@]2(O)c3c(OC)cc(OC)cc3O[C@@]2(c2ccc(OC)cc2)[C@@H]1c1ccccc1,63.9 mP and 22.2 mP and 74.6 mP
COc1ccc([C@@]23Oc4cc(OC)cc(OC)c4[C@@]24NC(C2CC2)=N[C@@]4(O)[C@H](C(=O)N(C)OC)[C@H]3c2ccccc2)cc1,80.3 mP
